# Published values of several laboratories.
# Each line is one published result; not all experiments were run side by side. “And” joins repeats or separate records; there may be more than shown. Numbers after ± are the reported error.
# SRC: Proto-oncogene tyrosine-protein kinase Src (SRC, Homo sapiens, UniProt P12931)
# Proteasome subunit beta type-9: Proteasome subunit beta type-9 (Homo sapiens, UniProt P28065)
# Sequence of UniProt P28065 (whole entry, looked up): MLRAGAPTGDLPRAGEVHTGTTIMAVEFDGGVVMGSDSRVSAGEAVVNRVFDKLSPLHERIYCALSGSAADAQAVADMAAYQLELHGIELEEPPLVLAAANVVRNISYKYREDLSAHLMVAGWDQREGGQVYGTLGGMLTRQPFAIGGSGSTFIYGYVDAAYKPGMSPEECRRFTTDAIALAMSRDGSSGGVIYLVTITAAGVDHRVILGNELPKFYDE
# PADI4: Protein-arginine deiminase type-4 (PADI4, Homo sapiens, UniProt Q9UM07)
# Sequence of UniProt Q9UM07 (whole entry, looked up): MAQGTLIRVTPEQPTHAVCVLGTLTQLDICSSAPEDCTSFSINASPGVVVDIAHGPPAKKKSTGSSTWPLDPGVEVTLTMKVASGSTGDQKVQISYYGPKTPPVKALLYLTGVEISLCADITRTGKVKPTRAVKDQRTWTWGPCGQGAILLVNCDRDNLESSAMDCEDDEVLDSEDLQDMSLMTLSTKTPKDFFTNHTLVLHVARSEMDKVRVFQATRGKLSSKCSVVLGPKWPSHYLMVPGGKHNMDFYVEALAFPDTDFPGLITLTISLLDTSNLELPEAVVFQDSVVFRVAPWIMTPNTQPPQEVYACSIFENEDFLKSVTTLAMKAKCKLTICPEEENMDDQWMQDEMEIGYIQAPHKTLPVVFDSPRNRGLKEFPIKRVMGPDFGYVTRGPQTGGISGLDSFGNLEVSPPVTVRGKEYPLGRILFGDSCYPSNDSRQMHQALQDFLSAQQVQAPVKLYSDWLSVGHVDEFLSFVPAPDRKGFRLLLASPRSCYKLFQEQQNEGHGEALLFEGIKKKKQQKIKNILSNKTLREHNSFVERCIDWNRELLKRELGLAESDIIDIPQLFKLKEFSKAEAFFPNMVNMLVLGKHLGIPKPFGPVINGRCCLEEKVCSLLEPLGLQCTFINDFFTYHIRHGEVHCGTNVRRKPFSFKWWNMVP
# PSEN1 in γ-secretase complex: Presenilin-1, in γ-secretase complex (PSEN1, Homo sapiens, UniProt P49768)
# pyrD: Dihydroorotate dehydrogenase (quinone) (pyrD, Acinetobacter baumannii, UniProt B7GZW7)
# Sequence of UniProt B7GZW7 (whole entry, looked up): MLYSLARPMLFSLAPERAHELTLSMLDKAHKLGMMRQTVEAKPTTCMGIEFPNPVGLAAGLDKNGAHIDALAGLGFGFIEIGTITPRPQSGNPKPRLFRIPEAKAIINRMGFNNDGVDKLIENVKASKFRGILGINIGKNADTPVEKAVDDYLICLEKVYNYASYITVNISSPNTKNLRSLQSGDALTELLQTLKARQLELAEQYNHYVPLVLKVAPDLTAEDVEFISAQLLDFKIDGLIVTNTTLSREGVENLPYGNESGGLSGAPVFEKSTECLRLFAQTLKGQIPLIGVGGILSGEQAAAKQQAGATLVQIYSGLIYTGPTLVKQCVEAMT
# P2RX4: P2X purinoceptor 4 (P2RX4, Homo sapiens, UniProt Q99571)
# Sequence of UniProt Q99571 (whole entry, looked up): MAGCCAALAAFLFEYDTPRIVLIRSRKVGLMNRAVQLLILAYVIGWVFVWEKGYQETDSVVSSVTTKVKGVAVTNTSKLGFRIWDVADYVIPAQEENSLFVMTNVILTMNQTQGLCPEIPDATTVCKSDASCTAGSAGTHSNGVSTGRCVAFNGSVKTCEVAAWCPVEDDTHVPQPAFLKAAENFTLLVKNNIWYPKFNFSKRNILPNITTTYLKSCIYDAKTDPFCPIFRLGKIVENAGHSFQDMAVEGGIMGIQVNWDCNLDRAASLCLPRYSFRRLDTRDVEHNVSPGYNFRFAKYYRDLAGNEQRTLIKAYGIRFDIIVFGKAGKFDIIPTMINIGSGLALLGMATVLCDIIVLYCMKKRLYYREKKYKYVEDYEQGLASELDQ
# CYP2D6: Cytochrome P450 2D6 (CYP2D6, Homo sapiens, UniProt P10635)
# Sequence of UniProt P10635 (whole entry, looked up): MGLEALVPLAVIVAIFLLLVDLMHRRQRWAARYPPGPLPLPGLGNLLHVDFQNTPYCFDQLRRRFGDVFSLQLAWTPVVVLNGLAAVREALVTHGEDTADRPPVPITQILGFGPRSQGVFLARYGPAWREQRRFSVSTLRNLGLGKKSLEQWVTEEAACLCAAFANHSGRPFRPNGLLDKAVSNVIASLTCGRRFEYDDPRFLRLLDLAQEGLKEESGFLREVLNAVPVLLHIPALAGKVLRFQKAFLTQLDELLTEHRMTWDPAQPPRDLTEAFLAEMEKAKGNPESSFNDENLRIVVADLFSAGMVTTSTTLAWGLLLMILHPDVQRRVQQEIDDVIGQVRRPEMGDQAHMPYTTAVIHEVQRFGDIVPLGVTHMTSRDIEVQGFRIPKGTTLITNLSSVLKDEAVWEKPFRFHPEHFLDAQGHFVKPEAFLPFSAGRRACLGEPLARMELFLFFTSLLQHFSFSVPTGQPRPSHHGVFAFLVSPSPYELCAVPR
# SLC22A11: Solute carrier family 22 member 11 (SLC22A11, Homo sapiens, UniProt Q9NSA0)
# Sequence of UniProt Q9NSA0 (whole entry, looked up): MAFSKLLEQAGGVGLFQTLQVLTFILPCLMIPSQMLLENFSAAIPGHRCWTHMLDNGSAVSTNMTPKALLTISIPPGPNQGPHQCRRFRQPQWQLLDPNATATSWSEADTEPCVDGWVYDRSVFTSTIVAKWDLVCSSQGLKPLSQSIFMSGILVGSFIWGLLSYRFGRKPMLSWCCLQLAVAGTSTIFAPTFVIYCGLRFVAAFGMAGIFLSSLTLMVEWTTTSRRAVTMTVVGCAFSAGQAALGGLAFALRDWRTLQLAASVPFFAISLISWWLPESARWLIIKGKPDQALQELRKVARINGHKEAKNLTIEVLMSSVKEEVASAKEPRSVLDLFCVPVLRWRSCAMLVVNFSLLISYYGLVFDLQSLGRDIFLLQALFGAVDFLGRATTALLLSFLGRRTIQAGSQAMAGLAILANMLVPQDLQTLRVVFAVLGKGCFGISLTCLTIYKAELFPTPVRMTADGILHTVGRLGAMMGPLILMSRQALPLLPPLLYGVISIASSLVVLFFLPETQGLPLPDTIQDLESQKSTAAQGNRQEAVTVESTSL
# Probable G-protein coupled receptor 34: Probable G-protein coupled receptor 34 (Homo sapiens, UniProt Q9UPC5)
# Sequence of UniProt Q9UPC5 (whole entry, looked up): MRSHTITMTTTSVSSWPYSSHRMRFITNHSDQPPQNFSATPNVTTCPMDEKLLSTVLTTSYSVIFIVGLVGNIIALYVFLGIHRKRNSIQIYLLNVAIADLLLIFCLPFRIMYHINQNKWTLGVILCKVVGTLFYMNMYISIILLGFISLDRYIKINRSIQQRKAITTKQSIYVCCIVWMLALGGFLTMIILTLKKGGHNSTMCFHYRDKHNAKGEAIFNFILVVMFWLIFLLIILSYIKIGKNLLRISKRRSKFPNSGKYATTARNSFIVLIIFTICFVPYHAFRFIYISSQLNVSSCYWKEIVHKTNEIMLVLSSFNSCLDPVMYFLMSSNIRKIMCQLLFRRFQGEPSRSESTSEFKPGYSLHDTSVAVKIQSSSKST
# Sequence of UniProt Q8C6L5 (whole entry, looked up): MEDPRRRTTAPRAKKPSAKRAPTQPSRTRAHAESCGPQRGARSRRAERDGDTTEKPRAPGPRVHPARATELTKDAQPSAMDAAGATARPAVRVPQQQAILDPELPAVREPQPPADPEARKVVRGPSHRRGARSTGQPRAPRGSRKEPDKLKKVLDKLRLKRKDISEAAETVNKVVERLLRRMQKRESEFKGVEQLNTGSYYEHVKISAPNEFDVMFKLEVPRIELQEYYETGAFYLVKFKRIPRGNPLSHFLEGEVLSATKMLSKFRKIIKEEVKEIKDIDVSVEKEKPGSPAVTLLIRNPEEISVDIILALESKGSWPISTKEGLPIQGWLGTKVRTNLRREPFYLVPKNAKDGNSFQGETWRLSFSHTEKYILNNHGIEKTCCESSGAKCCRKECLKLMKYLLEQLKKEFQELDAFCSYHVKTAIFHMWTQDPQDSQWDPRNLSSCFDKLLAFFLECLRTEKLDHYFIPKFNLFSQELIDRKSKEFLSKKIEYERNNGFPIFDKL
# Sequence of UniProt P26038 (whole entry, looked up): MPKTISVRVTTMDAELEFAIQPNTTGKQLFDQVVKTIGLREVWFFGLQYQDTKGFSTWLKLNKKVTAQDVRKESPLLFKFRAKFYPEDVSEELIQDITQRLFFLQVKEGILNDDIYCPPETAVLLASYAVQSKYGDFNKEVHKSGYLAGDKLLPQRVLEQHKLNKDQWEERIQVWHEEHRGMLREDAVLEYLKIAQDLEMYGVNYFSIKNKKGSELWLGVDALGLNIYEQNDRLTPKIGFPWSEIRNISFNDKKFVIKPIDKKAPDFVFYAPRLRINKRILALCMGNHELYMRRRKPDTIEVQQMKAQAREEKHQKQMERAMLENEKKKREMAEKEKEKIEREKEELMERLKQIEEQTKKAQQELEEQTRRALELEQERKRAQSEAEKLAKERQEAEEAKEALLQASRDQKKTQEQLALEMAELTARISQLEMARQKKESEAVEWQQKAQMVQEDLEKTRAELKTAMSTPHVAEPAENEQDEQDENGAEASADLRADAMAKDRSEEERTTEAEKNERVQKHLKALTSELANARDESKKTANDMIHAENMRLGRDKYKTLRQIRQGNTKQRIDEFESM
# Sequence of UniProt P28074 (whole entry, looked up): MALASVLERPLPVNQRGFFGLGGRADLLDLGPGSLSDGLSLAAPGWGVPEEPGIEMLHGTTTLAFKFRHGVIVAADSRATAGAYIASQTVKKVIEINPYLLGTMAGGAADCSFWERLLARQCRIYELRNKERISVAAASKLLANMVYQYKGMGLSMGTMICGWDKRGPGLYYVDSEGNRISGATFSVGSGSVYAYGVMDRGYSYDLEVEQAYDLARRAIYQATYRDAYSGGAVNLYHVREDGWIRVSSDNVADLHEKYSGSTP
Structure (SMILES),tested on,assay,system,setting,scale,endpoint,value
CCCCCCCCCSC(C)C(N)=O (stereo not drawn),"Epoxide hydrolase 1 (Ephx1, Rattus norvegicus, UniProt P07687)","enzyme activity, inhibitor",,,,IC50,6.5 ± 0.8 µM
O=c1nc(N2CCN(CC3CCCCC3)CC2)sc2c([N+](=O)[O-])cc(C(F)(F)F)cc12,"Cytochrome P450 2C9 (CYP2C9, Homo sapiens, UniProt P11712)",,,"60 (unit not given), pH 7.4",,IC50,> 10 µM
CC#CC(=O)N[C@H]1CCCN(c2c(F)cc(C(N)=O)c3[nH]c(C)c(C)c23)C1,SRC,,,,,IC50,1.81 µM
Cc1ncc(C(=O)N[C@@H](CC2CCC3CCCCC3C2)C(=O)N[C@@H](CC(C)C)C(=O)N[C@H](/C=C/S(C)(=O)=O)Cc2ccc(CN)cc2)s1 (stereo partly drawn),Proteasome subunit beta type-9,competitive ABPP,Raji cell lysate,,,IC50,> 10 µM
CCn1c(-c2nc3cc(C(=O)N4CCC[C@@H](N)C4)cc(OC)c3n2C)cc2cccnc21,PADI4,"binding, fluorescence polarisation",,"added: tracer displacement, 10 mM Ca2+",,IC50,2.2 µM
NCCCNCCCCCC(=O)C(F)(F)F,"Histone deacetylase 6, catalytic domain 2 (hdac6, Danio rerio, UniProt F8W4B7)","enzyme activity, inhibitor, fluorogenic substrate",,"enzyme 3 nM, catalytic domain 2, added: substrate 16 µM",,IC50,1.4 µM
CC1(C)CC[C@]2(C(=O)O)CC[C@]3(C)C(=CC[C@@H]4[C@@]5(C)C[C@@H](O)[C@H](OC(=O)/C=C/c6ccc(O)cc6)C(C)(C)[C@@H]5CC[C@]43C)[C@@H]2C1 (relative stereo),PSEN1 in γ-secretase complex,"Aβ42 production, inhibitor, cell-free γ-secretase",HeLa membranes,added: APP-CTF substrate,,IC50,0.3 µM
CCOc1cccc(/C=N/NC(=O)c2ccccn2)c1O,"CLEC1B, with podoplanin (Homo sapiens, UniProt Q9P126)","podoplanin binding, inhibitor, AlphaScreen",,"250 nM CLEC-2, added: 50 nM biotinylated podoplanin-Fc",,IC50,6.7 µM
Nc1cc(Nc2ccc(C(F)(F)F)cc2)n2ncnc2n1,pyrD,"enzyme activity, inhibitor, DCIP steady-state rate",,,,IC50,7 ± 2.6 µM
O=S(=O)(Cc1ccccc1)N1CCNCC1COc1ccc2ccccc2c1 (stereo not drawn),P2RX4,"calcium flux, inhibitor, Ca2+ flux",human cells,,,IC50,2.57 ± 0.36 µM
COc1ccc(C[C@H](NC(=O)[C@H](C)NC(=O)CN2CCOCC2)C(=O)N[C@H](C(=O)[C@@]2(C)CO2)C2CCCCC2)cc1,Proteasome subunit beta type-9,competitive ABPP,Raji cell lysate,,,IC50,> 10 µM
O=c1nc(SCc2cc(F)cc(C(F)(F)F)c2)nc(SCc2ccc3sccc3c2)[nH]1,"TOP2A (Homo sapiens, UniProt P11388)","ATPase activity, ATP-competitive inhibitor",,added: ATP 0.75 mM,,IC50,14 µM
O=c1cc2oc3cc(O)c(-c4ccc(O)cc4O)cc3nc-2cc1-c1ccc(O)cc1O,"Superoxide dismutase [Cu-Zn], fully metallated (SOD1, Homo sapiens, UniProt P00441)","enzyme activity, inhibitor, XTT",,,,IC50,> 75 µM
Cc1cc(Nc2ccc(S(F)(F)(F)(F)F)cc2)n2nc(C(F)(F)F)nc2n1,pyrD,"enzyme activity, inhibitor, DCIP steady-state rate",,,,IC50,0.48 ± 0.32 µM
Cc1nc(-c2cnc(NC(C)C)n(C)c2=O)ccc1Oc1ccnc(-c2cnn(C)c2)c1,CYP2D6,"direct inhibition, inhibitor",,no preincubation,,IC50,> 100 µM
O=C1C[C@@H](c2ccc(O)cc2)Oc2cc(O)cc(O)c21,"MAOB (Homo sapiens, UniProt P27338)","enzyme activity, inhibitor",,added: kynuramine 50 µM,,IC50,0.272 ± 0.022 µM
COCCOc1ccc(N2CCNCC2COc2ccc3c(c2)OCO3)cc1 (stereo not drawn),P2RX4,"Ca2+ flux, antagonist",human cells expressing P2RX4,racemate tested,,IC50,> 10 µM
CN1CCC(CNc2ccc3ncc(-c4cccc(OC(F)(F)F)c4)n3n2)CC1,"Insulin receptor (INSR, Homo sapiens, UniProt P06213)","binding, KINOMEscan binding",,top concentration 10 µM,,IC50,0.442 µM
CC(C)C[C@H](NC(=O)[C@H](CCc1ccccc1)NC(=O)CN1CCOCC1)C(=O)N[C@@H](Cc1ccccc1)C(=O)N[C@@H](CC(C)C)C(=O)[C@@]1(C)CO1,"Proteasome subunit beta type-1/Psmb8, LMP7 subunit (Mus musculus, UniProt O09061+P28063)","proteasome activity, inhibitor",Ba/F3 p210,1 h pulse,,IC50,0.00705 ± 0.00235 µM
CC(C)C[C@@H](N)[C@H](O)C(=O)N[C@H](C(=O)N[C@H](C(=O)N[C@@H](CC(=O)O)C(=O)O)C(C)C)C(C)C,rat aminopeptidase III,"enzyme activity, inhibitor",,,,IC50,0.05 µM
Fc1ccc(N2CCNCC2CSc2ccccc2)cc1 (stereo not drawn),P2RX4,"calcium flux, inhibitor, Ca2+ flux",human cells,,,IC50,7.41 ± 3.55 µM
O=C1C(CC[S+]([O-])c2ccccc2)C(=O)N(c2ccccc2)N1c1ccccc1 (stereo not drawn),SLC22A11,"transport, inhibitor",CHO expressing hOAT4,"5 min, added: 6-carboxyfluorescein 25 µM",,IC50,1.04 ± 0.5 µM
O=C(Nc1ccc(-c2nc3ccccc3[nH]2)cc1)c1cccc(Cl)c1,"Moesin, with CD44 (Homo sapiens, UniProt P26038)","MSN-CD44 binding, inhibitor, TR-FRET",,,,IC50,6.3 µM
O=[N+]([O-])c1ccc(N2CCNCC2COc2ccc3c(c2)OCO3)cc1 (stereo not drawn),P2RX4,"calcium flux, inhibitor, Ca2+ flux",human cells,,,IC50,> 10 µM
CC(C)C[C@H](NC(=O)[C@H](CC(C)C)NC(=O)[C@H](Cc1ccccc1)NC(=O)CN=[N+]=[N-])C(=O)N[C@H](/C=C/S(C)(=O)=O)Cc1ccc(CN)cc1,Proteasome subunit beta type-9,competitive ABPP,Raji cell lysate,,,IC50,> 10 µM
CN(C/C=C/C#CC(C)(C)C)Cc1cccc2ccccc12,CYP2D6,,,pH 7.4,,IC50,0.03 µM
COc1cc(-c2cc(C(C)=O)n3ccccc23)cc(OC)c1Cn1ccnc1,"BRD7 (Homo sapiens, UniProt Q9NPI1)",inhibitor,,,,IC50,0.042 µM
O=C(CCCCCCC(=O)Nc1ccc(CCF)cc1)NO,"HDAC8 (Homo sapiens, UniProt Q9BY41)",,,,,IC50,0.115 µM
CCn1c2ccccc2c2cc(NC(=O)COc3ccc(S(=O)(=O)N4CCOCC4)cc3)ccc21,Probable G-protein coupled receptor 34,"antagonist, Tango",,added: LysoPS 5 µM,,IC50,> 10 µM
Cc1nn(-c2nc3c(F)cc(F)cc3s2)c(O)c1C(c1ccc(C(F)(F)F)cc1)c1c(C)nn(-c2nc3c(F)cc(F)cc3s2)c1O,"Cgas (Mus musculus, UniProt Q8C6L5)","enzyme activity, inhibitor, pyrophosphatase-coupled",,mouse cGAS,,IC50,3.43 µM and 2.15 µM
CC(C)C[C@H](NC(=O)[C@H](Cc1ccccc1)N=[N+]=[N-])C(=O)N[C@@H](CC(C)(C)F)C(=O)N[C@H](/C=C/S(C)(=O)=O)Cc1ccc(CN)cc1,Proteasome subunit beta type-9,competitive ABPP,Raji cell lysate,,,IC50,> 10 µM
c1ccc(N2CCNCC2COc2ccc3c(c2)OCO3)cc1 (stereo not drawn),P2RX4,"Ca2+ flux, antagonist",human cells expressing P2RX4,racemate tested,,IC50,> 10 µM
CCC[C@H](NC(=O)/C(C#N)=C/c1cccc(Br)n1)c1ccccc1,"USP1 (Homo sapiens, UniProt O94782)","enzyme activity, inhibitor, MALDI-TOF DUB",,"35 min preincubation, 30 °C, added: UAF1 complex",,IC50,2.16 µM
Cc1oc(-c2ccccc2Cl)nc1C[S+]([O-])CC(=O)NCc1ccc2c(c1)OCO2 (stereo not drawn),Probable G-protein coupled receptor 34,"antagonist, Tango",,added: LysoPS 5 µM,,IC50,> 10 µM
O=S(=O)(c1ccc(F)cc1)N1CCNCC1COc1ccc2ccccc2c1 (stereo not drawn),P2RX4,"calcium flux, inhibitor, Ca2+ flux",human cells,,,IC50,6.91 ± 0.2 µM
c1cc2c3c(cccc3c1)CC2,"Cytochrome P450 1B1 (CYP1B1, Homo sapiens, UniProt Q16678)",,,,,IC50,11 µM
Nc1nc(=O)n([C@H]2C[C@H](O)[C@@H](CO)O2)cc1CNC[C@H]1O[C@@H](n2cnc3c(N)ncnc32)[C@H](O)[C@@H]1O,"DNMT1 (Homo sapiens, UniProt P26358)",,,"truncated enzyme, added: 26 bp hemimethylated DNA, SAM 1 µM",,IC50,> 100 µM
CN1CCN(c2ccc(Nc3ncc4cc(C#N)c(=O)n(C5CCCC5)c4n3)cc2)CC1,"FGR (Homo sapiens, UniProt P09769)",,,,,IC50,0.0625 µM
CCCC[C@@H](C=O)NC(=O)[C@H](CC(C)C)NC(=O)OCc1ccccc1,PSEN1 in γ-secretase complex,"gamma-secretase activity, inhibitor, AlphaLISA",,added: Notch1 substrate,,IC50,0.24 ± 0.06 µM
COc1ccc(OCC2CNCCN2c2ccc(F)cc2)cc1OC (stereo not drawn),P2RX4,"calcium flux, inhibitor, Ca2+ flux",human cells,,,IC50,> 100 µM
CCn1c(-c2nc3ccc(C(=O)N4CCCC(N)C4)cc3n2C)cc2ccccc21 (stereo not drawn),PADI4,"binding, fluorescence polarisation",,"added: 10 nM tracer displacement, 0.2 mM Ca2+",,IC50,> 100 µM
Cc1ncc(C(=O)N[C@@H](CC(C)C)C(=O)N[C@@H](CCC2CCCCC2)C(=O)N[C@H](/C=C/S(C)(=O)=O)Cc2ccc(CN)cc2)s1,Proteasome subunit beta type-9,competitive ABPP,Raji cell lysate,,,IC50,> 10 µM
Cc1cnc(NC(=O)C2=C(O)c3ccccc3S(=O)(=O)N2C)s1,SLC22A11,"transport, inhibitor",CHO expressing hOAT4,"5 min, added: 6-carboxyfluorescein 25 µM",,IC50,10.7 ± 3.3 µM
COc1cc2nccc(Oc3ccc(NC(=O)c4cc5c(n(-c6ccccc6)c4=O)CCCC5=O)nc3)c2cc1OC,SRC,"cell viability, CellTiter-Glo",Ba/F3 expressing recombinant kinase,48 h,,IC50,> 0.1 µM
NC(=O)C1=CN([C@@H]2O[C@H](COP(=O)(O)OP(=O)(O)OC[C@H]3O[C@@H](n4cnc5c(N)ncnc54)[C@H](OP(=O)(O)O)[C@@H]3O)[C@@H](O)[C@H]2O)C=CC1,,"binding, MIDAS equilibrium dialysis LC-MS",A2AR-BRIL thermostabilized,concentration not given,baseline: no-protein control,log2 fold change,-0.576
Fc1ccc(N2CCNCC2COc2ccncc2)cc1 (stereo not drawn),P2RX4,"calcium flux, inhibitor, Ca2+ flux",human cells,,,IC50,> 100 µM
CCCNc1c2c([nH]c(=O)c1C(=O)OCC)CCC2,"Gag-Pol polyprotein, reverse transcriptase (gag-pol, Human immunodeficiency virus 1, UniProt P03366)","reverse transcriptase activity, inhibitor",,recombinant wild-type enzyme,,IC50,76.4 ± 2.9 µM
NCCOCC(=O)N1CCC[C@H](C(=O)NCc2nc(-c3ccc(C(F)(F)F)cc3)cs2)C1,"PSMB1/PSMB5/PSMB3 (Homo sapiens, UniProt P20618+P28074+P49720)",,,,,IC50,> 30 µM
CO[C@H]1/C=C/O[C@@]2(C)Oc3c(C)c(O)c4c(O)c(c(/C=N/N5CCN(C)CC5)c(O)c4c3C2=O)NC(=O)/C(C)=C\C=C\[C@H](C)[C@H](O)[C@@H](C)[C@@H](O)[C@@H](C)[C@H](OC(C)=O)[C@@H]1C,"SLCO1B3 (Homo sapiens, UniProt Q9NPD5)",inhibitor,,,,IC50,1.6 µM
C=CC(=O)Nc1cccc(Sc2nc(Nc3ccc(N4CCN(C)CC4)cc3)ncc2Cl)c1,Probable G-protein coupled receptor 34,"antagonist, Tango",,added: LysoPS 5 µM,,IC50,5.58 ± 2.17 µM
Cc1ncc(C(=O)N[C@@H](CC2CCC(C)CC2)C(=O)N[C@@H](CC(C)C)C(=O)N[C@H](/C=C/S(C)(=O)=O)Cc2ccc(CN)cc2)s1 (stereo partly drawn),Proteasome subunit beta type-9,competitive ABPP,Raji cell lysate,,,IC50,> 10 µM

# For quick reference, copied from above:
Structure (SMILES),tested on,assay,system,setting,scale,endpoint,value
CN(C/C=C/C#CC(C)(C)C)Cc1cccc2ccccc12,CYP2D6,,,pH 7.4,,IC50,0.03 µM
COc1cc(-c2cc(C(C)=O)n3ccccc23)cc(OC)c1Cn1ccnc1,"BRD7 (Homo sapiens, UniProt Q9NPI1)",inhibitor,,,,IC50,0.042 µM
O=C(CCCCCCC(=O)Nc1ccc(CCF)cc1)NO,"HDAC8 (Homo sapiens, UniProt Q9BY41)",,,,,IC50,0.115 µM
CCn1c2ccccc2c2cc(NC(=O)COc3ccc(S(=O)(=O)N4CCOCC4)cc3)ccc21,Probable G-protein coupled receptor 34,"antagonist, Tango",,added: LysoPS 5 µM,,IC50,> 10 µM
